Measurements from different studies.
Lines come from different studies, so protocols differ. Numbers after ± are the reported error.
CDK2: Cyclin-dependent kinase 2 (CDK2, Homo sapiens, UniProt P24941)
DRD3: D(3) dopamine receptor (DRD3, Homo sapiens, UniProt P35462)
UniProt P35462, sequence (whole entry, looked up): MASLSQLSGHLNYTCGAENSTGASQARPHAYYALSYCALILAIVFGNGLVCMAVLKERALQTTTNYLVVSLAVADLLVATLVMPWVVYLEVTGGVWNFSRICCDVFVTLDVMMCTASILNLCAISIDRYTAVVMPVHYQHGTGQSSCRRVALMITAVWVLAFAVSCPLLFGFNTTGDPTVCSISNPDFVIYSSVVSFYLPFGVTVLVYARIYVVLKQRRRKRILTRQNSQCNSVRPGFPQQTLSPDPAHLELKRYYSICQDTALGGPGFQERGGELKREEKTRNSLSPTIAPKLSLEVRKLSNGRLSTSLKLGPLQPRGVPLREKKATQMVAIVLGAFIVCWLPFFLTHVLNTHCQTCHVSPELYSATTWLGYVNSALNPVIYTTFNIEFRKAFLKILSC
SLC10A1: Hepatic sodium/bile acid cotransporter (SLC10A1, Homo sapiens, UniProt Q14973)
UniProt Q14973, sequence (whole entry, looked up): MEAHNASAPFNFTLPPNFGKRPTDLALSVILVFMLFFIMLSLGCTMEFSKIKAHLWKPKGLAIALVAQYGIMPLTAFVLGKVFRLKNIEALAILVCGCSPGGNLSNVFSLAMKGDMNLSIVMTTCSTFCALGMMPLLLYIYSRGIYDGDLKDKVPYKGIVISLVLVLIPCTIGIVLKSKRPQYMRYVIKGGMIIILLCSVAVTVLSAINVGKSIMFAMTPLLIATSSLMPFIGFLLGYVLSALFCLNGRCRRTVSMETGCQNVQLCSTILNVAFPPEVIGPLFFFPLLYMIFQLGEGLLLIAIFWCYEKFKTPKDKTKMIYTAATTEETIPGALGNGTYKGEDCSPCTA
RORC: Nuclear receptor ROR-gamma (RORC, Homo sapiens, UniProt P51449)
UniProt P51449, sequence (whole entry, looked up): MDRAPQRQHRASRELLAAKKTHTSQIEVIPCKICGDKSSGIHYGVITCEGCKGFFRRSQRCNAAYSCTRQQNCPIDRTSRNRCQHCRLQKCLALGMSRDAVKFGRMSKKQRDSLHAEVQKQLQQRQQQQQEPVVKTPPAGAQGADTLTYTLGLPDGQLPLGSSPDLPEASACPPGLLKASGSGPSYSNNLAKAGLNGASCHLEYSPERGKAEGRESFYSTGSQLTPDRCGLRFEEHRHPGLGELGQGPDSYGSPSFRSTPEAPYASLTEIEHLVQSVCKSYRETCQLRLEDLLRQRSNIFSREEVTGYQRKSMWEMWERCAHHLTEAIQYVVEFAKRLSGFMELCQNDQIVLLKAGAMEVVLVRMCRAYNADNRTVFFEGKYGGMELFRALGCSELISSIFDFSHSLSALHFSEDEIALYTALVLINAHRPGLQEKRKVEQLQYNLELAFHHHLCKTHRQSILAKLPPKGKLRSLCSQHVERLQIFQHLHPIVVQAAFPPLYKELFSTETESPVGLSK
MBLAC2: MBLAC2 (Homo sapiens, UniProt Q68D91)
UniProt Q68D91, sequence (whole entry, looked up): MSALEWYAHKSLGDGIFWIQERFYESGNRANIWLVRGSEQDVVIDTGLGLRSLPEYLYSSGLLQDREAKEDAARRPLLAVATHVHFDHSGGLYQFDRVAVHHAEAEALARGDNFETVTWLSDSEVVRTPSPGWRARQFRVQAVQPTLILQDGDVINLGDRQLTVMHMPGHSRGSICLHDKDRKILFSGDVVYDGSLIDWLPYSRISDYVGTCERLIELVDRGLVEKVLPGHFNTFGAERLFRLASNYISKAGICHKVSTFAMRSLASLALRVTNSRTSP
CDK2 with cyclin A: Cyclin-dependent kinase 2, with cyclin A (CDK2, Homo sapiens, UniProt P24941)
ESR1: Estrogen receptor (ESR1, Homo sapiens, UniProt P03372)
UniProt P03372, sequence (whole entry, looked up): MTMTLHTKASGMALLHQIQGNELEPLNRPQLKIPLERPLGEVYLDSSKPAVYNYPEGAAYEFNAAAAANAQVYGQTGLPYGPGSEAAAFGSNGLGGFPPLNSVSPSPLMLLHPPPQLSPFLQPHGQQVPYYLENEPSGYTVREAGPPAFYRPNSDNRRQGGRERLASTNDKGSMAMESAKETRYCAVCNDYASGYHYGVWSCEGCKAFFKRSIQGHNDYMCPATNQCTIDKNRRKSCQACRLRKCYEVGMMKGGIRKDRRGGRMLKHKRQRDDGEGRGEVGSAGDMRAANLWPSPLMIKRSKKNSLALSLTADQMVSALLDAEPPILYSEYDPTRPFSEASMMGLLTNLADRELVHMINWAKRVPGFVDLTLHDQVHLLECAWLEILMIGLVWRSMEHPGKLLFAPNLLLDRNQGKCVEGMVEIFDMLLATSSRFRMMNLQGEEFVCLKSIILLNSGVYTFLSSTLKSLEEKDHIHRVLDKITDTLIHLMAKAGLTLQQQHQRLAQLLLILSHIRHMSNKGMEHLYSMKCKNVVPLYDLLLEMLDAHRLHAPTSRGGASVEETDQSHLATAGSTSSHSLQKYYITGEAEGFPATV
UniProt P08909, sequence (whole entry, looked up): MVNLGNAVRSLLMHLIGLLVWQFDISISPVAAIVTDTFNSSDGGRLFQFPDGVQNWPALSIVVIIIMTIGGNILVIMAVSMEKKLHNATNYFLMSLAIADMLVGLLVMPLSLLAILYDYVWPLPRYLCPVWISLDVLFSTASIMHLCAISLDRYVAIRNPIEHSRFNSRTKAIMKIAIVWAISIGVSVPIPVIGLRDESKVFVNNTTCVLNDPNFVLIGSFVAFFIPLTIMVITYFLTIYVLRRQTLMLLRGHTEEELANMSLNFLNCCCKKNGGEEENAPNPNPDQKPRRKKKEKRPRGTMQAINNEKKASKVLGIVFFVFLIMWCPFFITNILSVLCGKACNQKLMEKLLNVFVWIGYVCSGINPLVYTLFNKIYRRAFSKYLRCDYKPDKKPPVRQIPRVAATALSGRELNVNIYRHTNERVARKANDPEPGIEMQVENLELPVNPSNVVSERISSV
UniProt Q9GZV3, sequence (whole entry, looked up): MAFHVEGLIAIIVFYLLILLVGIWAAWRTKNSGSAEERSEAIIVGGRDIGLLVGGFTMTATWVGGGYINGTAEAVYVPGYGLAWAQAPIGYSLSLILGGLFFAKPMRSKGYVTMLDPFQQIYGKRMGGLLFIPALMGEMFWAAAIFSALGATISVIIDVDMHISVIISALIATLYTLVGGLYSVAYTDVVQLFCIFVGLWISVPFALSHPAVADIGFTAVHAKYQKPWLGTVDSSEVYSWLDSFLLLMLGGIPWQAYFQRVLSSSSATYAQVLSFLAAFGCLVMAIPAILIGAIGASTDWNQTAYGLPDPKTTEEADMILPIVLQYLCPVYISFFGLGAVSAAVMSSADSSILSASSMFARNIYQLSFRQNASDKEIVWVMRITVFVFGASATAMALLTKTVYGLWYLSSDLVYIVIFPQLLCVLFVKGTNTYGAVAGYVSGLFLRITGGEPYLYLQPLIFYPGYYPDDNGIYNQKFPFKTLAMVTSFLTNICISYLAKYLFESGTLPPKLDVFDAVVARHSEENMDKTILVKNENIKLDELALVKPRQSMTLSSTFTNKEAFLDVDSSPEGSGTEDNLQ
UniProt P14618, sequence (whole entry, looked up): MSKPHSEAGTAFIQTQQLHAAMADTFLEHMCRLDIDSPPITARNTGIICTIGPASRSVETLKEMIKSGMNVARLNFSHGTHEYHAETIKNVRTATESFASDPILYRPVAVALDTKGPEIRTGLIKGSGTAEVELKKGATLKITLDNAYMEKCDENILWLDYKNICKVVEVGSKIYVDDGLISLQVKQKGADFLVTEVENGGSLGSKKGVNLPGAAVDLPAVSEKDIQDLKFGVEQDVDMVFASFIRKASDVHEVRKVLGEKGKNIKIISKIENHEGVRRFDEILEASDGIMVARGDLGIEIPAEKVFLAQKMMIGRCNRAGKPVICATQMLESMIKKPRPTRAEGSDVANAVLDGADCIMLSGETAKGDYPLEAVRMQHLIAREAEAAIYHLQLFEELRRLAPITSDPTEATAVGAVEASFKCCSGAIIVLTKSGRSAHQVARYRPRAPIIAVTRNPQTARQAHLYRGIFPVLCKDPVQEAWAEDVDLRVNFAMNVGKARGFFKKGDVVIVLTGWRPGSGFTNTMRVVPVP

CSc1ccc(S(=O)(=O)NCc2ccccn2)cc1
Kd (CDK2; binding): > 100 µM

Cc1[nH]c(C)c(S(=O)(=O)Nc2cc(Cl)ccc2C(F)(F)F)c1C(=O)N1CCC(F)(F)C1
IC50 (DRD3; β-arrestin recruitment, antagonist, PathHunter; added: dopamine EC80): > 100 µM

CN(C)CCCN1c2ccccc2Sc2ccc(Cl)cc21
Ki (SLC10A1; taurocholate uptake, inhibitor; NTCP-expressing HEK293; added: 10 µM taurocholate): 767 ± 268 µM

COc1ccc(Cl)cc1COc1ccc2c(c1)N(S(=O)(=O)c1cccc(C(F)(F)F)c1)CC2
EC50 (RORC; reporter gene, agonist, GAL4 luciferase reporter; added: ursolic acid 2 µM): 0.49 ± 0.04 µM

O=C(c1c[nH]cc1S(=O)(=O)Nc1ccc(C(F)(F)F)c(Cl)c1)N1CCC(F)(F)C1
IC50 (DRD3; Go activation, antagonist, BRET; added: dopamine): > 100 µM

CN1CCN(CCCN2c3ccccc3Sc3ccc(Cl)cc32)CC1
Ki (SLC10A1; taurocholate uptake, inhibitor; NTCP-expressing HEK293; added: 10 µM taurocholate): 280 ± 37 µM

COc1ccc(C(=O)CSc2nnc(-c3ccc(OC)c(OC)c3)n2-c2ccccc2)cc1
Kd (CDK2; binding): > 100 µM

N#C[C@@]12C[C@@H]1[C@@H](n1cnc3c(NC4CCCC4)nc(I)nc31)[C@H](O)[C@@H]2O
Kb (5-hydroxytryptamine receptor 2C (Rattus norvegicus, UniProt P08909); antagonist, Gq dissociation BRET; rat receptor): 0.148 µM

N=C(N)c1ccc(OCCCCCOc2ccc(C(=N)N)cc2)cc1
Ki (SLC10A1; taurocholate uptake, inhibitor; NTCP-expressing HEK293; added: 10 µM taurocholate): 615 ± 129 µM

Cc1[nH]c(C)c(S(=O)(=O)Nc2ccc(C(F)(F)F)c(Cl)c2)c1C(=O)N1CCC(F)(F)C1
Kb (DRD3; binding, allosteric modulator, radioligand competition binding; cell membranes; added: dopamine vs [3H]methylspiperone): 2.1 µM

Cn1cc(-c2ccc(S(=O)(=O)n3ccc(/C=C/C(=O)Nc4ccccc4N)c3)cc2)cn1
Kd (MBLAC2; inhibitor, competition pulldown; SW620 and MV4-11 lysate; 1 h): > 30.2 µM

Cc1ccnc(NS(=O)(=O)c2ccc(NC(=O)c3cncc(Br)c3)cc2)n1
Kd (CDK2 with cyclin A): > 100 µM

O=C(COP(=O)(O)O)[C@@H](O)[C@H](O)[C@H](O)COP(=O)(O)O
AC50 (Pyruvate kinase PKM (PKM, Homo sapiens, UniProt P14618); enzyme activity, activator; SK-HEP1 cell lysate; added: 0.2 mM PEP, 2 mM ADP): 0.0224 ± 0.0143 µM

Cn1c(COc2cccc3cccnc23)nnc1SCC(N)=O
Kd (CDK2; binding): > 100 µM

Cc1[nH]c(C)c(S(N)(=O)=Nc2ccc(C(F)(F)F)c(Cl)c2)c1C(=O)N1CCC(F)(F)C1 (stereo not drawn)
IC50 (DRD3; Go activation, antagonist, BRET; added: dopamine): > 100 µM

COc1cc(OC)cc(OC)c1
EC50 (ESR1; array formation, agonist; ERα-GFP PRL-HeLa; 1 h): 5.51 µM

C[N+](C)(C)C[C@H](O)CC(=O)[O-]
Ki (SLC10A1; taurocholate uptake, inhibitor; NTCP-expressing HEK293; added: 10 µM taurocholate): 181 ± 60 µM

O=S(=O)(c1cc(C(F)(F)F)ccn1)N1CCc2ccc(OCc3c(F)cccc3Cl)cc21
EC50 (RORC; reporter gene, agonist, GAL4 luciferase reporter; added: ursolic acid 2 µM): 0.33 ± 0.05 µM

Cc1ccc(NS(=O)(=O)c2c(C(=O)N3CCC(F)(F)C3)c(=O)[nH]n2C)cc1Cl
IC50 (DRD3; β-arrestin recruitment, antagonist, PathHunter; added: dopamine EC80): > 100 µM

C#C[C@]1(O)CC[C@H]2[C@@H]3CCC4=Cc5oncc5C[C@]4(C)[C@H]3CC[C@@]21C
Ki (SLC10A1; taurocholate uptake, inhibitor; NTCP-expressing HEK293; added: 10 µM taurocholate): 592 ± 187 µM

COc1ccc(-c2cc(=O)c3c(O)c(OC)c(OC)c(OC)c3o2)cc1OC
EC50 (ESR1; array formation, agonist; ERα-GFP PRL-HeLa; 1 h): 1.4 µM

Cc1nc2ncnn2c(O)c1NS(=O)(=O)c1ccc(Br)cc1
Kd (CDK2 with cyclin A): > 100 µM

Cc1c(C(=O)N2CCC(F)(F)C2)c(S(=O)(=O)Nc2ccc(C(F)(F)F)c(Cl)c2)c(C)n1C
IC50 (DRD3; β-arrestin recruitment, antagonist, PathHunter; added: dopamine EC80): > 100 µM

O=C1C[C@@H](c2ccc(O)cc2)Oc2cc(O)ccc21
EC50 (ESR1; array formation, agonist; ERα-GFP PRL-HeLa; 1 h): 2.27 µM

O=S(=O)(c1cccc(C(F)(F)F)c1)N1CCc2ccc(OCc3c(F)cccc3Cl)cc21
EC50 (RORC; reporter gene, agonist, GAL4 luciferase reporter; added: ursolic acid 2 µM): 0.26 ± 0.04 µM

O=C(O)[C@H]1O[C@@H](Oc2cc3oc(-c4ccccc4)cc(=O)c3c(O)c2O)[C@H](O)[C@@H](O)[C@@H]1O
EC50 (ESR1; array formation, agonist; ERα-GFP PRL-HeLa; 1 h): 1.4 µM

C[C@H]1C[C@@H]2[C@H]([C@@H](O)C[C@@]3(C)[C@H]2CC[C@]3(O)C(=O)CO)[C@@]2(C)C=CC(=O)C=C12
Ki (SLC10A1; taurocholate uptake, inhibitor; NTCP-expressing HEK293; added: 10 µM taurocholate): 255 ± 53 µM

Cc1[nH]c(C)c(C(=O)N2CCC(F)(F)C2)c1C(=O)Nc1ccc(C(F)(F)F)c(Cl)c1
IC50 (DRD3; Go activation, antagonist, BRET; added: dopamine): > 100 µM

CC1Cc2ccc(OCc3c(F)cccc3Cl)cc2N1S(=O)(=O)c1cccc(C(F)(F)F)c1 (stereo not drawn)
EC50 (RORC; IL-17 production, inverse agonist; HEK-293T; added: ursolic acid): 1.13 µM

O=c1n(CCCN2CCN(c3cccc(Cl)c3)CC2)nc2ccccn12
Ki (High affinity choline transporter 1 (SLC5A7, Homo sapiens, UniProt Q9GZV3)): > 10 µM

NC(=O)c1ncn([C@@H]2O[C@H](CO)[C@@H](O)[C@H]2O)n1
Ki (SLC10A1; taurocholate uptake, inhibitor; NTCP-expressing HEK293; added: 10 µM taurocholate): 193 ± 223 µM

COc1ccc(-c2nc(N3CCOCC3)c3sc(CN(C)c4ncc(C(=O)NO)cn4)cc3n2)cn1
Kd (MBLAC2; inhibitor, competition pulldown; SW620 and MV4-11 lysate; 1 h): 0.738 µM

CCOc1nc2cccc(C(=O)O)c2n1Cc1ccc(-c2ccccc2-c2nnn[nH]2)cc1
Ki (SLC10A1; taurocholate uptake, inhibitor; NTCP-expressing HEK293; added: 10 µM taurocholate): 145 ± 44 µM

CC[C@@H]1[C@H](F)C(=O)N[C@@H]1COc1nccc2cc(C(N)=O)c(OC)cc12
IC50 (eIF-2-alpha kinase GCN2 (EIF2AK4, Homo sapiens, UniProt Q9P2K8); ATP probe binding, KiNativ profiling, item: GCN2 Lys1 probe site; THP-1 cell lysate): > 5 µM

Oc1ccc2c(c1)OC[C@H]1c3cc4c(cc3O[C@@H]21)OCO4
EC50 (ESR1; array formation, agonist; ERα-GFP PRL-HeLa; 1 h): 1.24 µM

CC(=O)c1cccc(NC(=O)CSc2nnc(-c3cc4ccccc4cc3O)n2C)c1
Kd (CDK2; binding): > 100 µM

COc1cc(O)c2c(=O)c(O[C@@H]3O[C@H](CO)[C@@H](O)[C@H](O)[C@H]3O)c(-c3ccc(O[C@@H]4O[C@H](CO)[C@@H](O)[C@H](O)[C@H]4O)cc3)oc2c1
EC50 (ESR1; array formation, agonist; ERα-GFP PRL-HeLa; 1 h): 4.17 µM

O=S(=O)(c1cncc(C(F)(F)F)c1)N1CCc2ccc(OCc3c(F)cccc3Cl)cc21
EC50 (RORC; reporter gene, agonist, GAL4 luciferase reporter; added: ursolic acid 2 µM): 0.47 ± 0.07 µM

CC[C@H](C)[C@H](NC(=O)[C@H](C)NC(=O)[C@H](CCC(=O)O)NC(=O)[C@H](CCC(N)=O)NC(=O)[C@H](CC(=O)O)NC(=S)Nc1ccc2c(c1)C(=O)OC21c2ccc(O)cc2Oc2cc(O)ccc21)C(=O)N[C@@H](CCC(N)=O)C(=O)N[C@@H](CC(=O)O)C(=O)N[C@@H](CC(C)C)C(=O)N[C@@H](Cc1c[nH]c2ccccc12)C(=O)N[C@@H](CCC(N)=O)C(=O)N[C@@H](Cc1c[nH]c2ccccc12)C(=O)N[C@@H](CCCNC(=N)N)C(=O)N[C@@H](CCCCN)C(=O)N[C@@H](COP(=O)(O)O)C(=O)N[C@@H](CC(C)C)C(=O)O
selectivity ratio (14-3-3 isoforms, human; binding, fluorescence anisotropy; baseline: KD weakest isoform over 14-3-3γ): 62

Oc1ccc([C@H]2COc3cc(O)ccc3C2)cc1
EC50 (ESR1; array formation, agonist; ERα-GFP PRL-HeLa; 1 h): 0.0367 µM

CCCCOc1ccc(CC(=O)NO)cc1
Kd (MBLAC2; inhibitor, competition pulldown; SW620 and MV4-11 lysate; 1 h): > 30.2 µM

COc1ccc(NC(=O)CCSc2nnc3scc(-c4ccc(C)cc4)n23)cc1
Kd (CDK2; binding): > 100 µM

COC(=O)[C@@H]1CCCN1C(=O)c1c(C)[nH]c(C)c1S(=O)(=O)Nc1ccc(C(F)(F)F)c(Cl)c1
IC50 (DRD3; Go activation, antagonist, BRET; added: dopamine): > 100 µM

CC(=O)N=S(=O)(O)c1ccc(N/C=C2\C(=O)Nc3ccc4ncsc4c32)cc1
Kd (CDK2; binding, thermal shift): 3.58 µM

COc1ccc(-c2cc(=O)c3c(O)cc(O[C@@H]4O[C@H](CO[C@@H]5O[C@@H](C)[C@H](O)[C@@H](O)[C@H]5O)[C@@H](O)[C@H](O)[C@H]4O)cc3o2)cc1
EC50 (ESR1; array formation, agonist; ERα-GFP PRL-HeLa; 1 h): 0.104 µM

For quick reference, copied from above:
Cn1cc(-c2ccc(S(=O)(=O)n3ccc(/C=C/C(=O)Nc4ccccc4N)c3)cc2)cn1
Kd (MBLAC2; inhibitor, competition pulldown; SW620 and MV4-11 lysate; 1 h): > 30.2 µM

Cc1ccnc(NS(=O)(=O)c2ccc(NC(=O)c3cncc(Br)c3)cc2)n1
Kd (CDK2 with cyclin A): > 100 µM

O=C(COP(=O)(O)O)[C@@H](O)[C@H](O)[C@H](O)COP(=O)(O)O
AC50 (Pyruvate kinase PKM (PKM, Homo sapiens, UniProt P14618); enzyme activity, activator; SK-HEP1 cell lysate; added: 0.2 mM PEP, 2 mM ADP): 0.0224 ± 0.0143 µM

Cn1c(COc2cccc3cccnc23)nnc1SCC(N)=O
Kd (CDK2; binding): > 100 µM

Cc1[nH]c(C)c(S(N)(=O)=Nc2ccc(C(F)(F)F)c(Cl)c2)c1C(=O)N1CCC(F)(F)C1 (stereo not drawn)
IC50 (DRD3; Go activation, antagonist, BRET; added: dopamine): > 100 µM

COc1cc(OC)cc(OC)c1
EC50 (ESR1; array formation, agonist; ERα-GFP PRL-HeLa; 1 h): 5.51 µM
